Measured values gathered from unrelated publications.
Each numbered part is a random draw from the data of one study; scales do not carry over between parts. Substitutions count along the parent as printed.

Block 1
Target: Histone acetyltransferase KAT6A, both winged helices, GST fusion (KAT6A, Homo sapiens, UniProt Q92794, residues 1-181)
Technique: protein binding microarray
Form: double-stranded DNA, one strand shown
Medium: in vitro
Tested at: not given
Notes: 8-mer, flanks averaged, mean of 2 arrays, mostly near background
Baseline: not given
Direction: higher = stronger binding
Target sequence (chain): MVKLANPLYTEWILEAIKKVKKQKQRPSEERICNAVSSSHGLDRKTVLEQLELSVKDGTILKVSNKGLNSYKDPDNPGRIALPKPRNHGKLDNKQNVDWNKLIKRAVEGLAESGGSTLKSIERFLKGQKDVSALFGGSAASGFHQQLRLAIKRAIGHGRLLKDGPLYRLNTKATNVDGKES
| Sequence | E-score |
| --- | --- |
| TCCTTTCA | -0.0523 |
| CCCCTGCG | 0.113 |
| ATTCAGTG | -0.155 |
| GGTTCTAC | -0.0249 |
| CCTACGAA | -0.122 |
| GGACCGCA | 0.0926 |
| CTCCGCAC | 0.0718 |
| AGCTGGTC | -0.0543 |
| GCAGCCAC | -0.0167 |
| ACAACTAA | -0.0557 |
| GCTGCGGA | 0.0546 |
| GCGACCTA | 0.091 |
| GGTTTAAA | -0.0864 |
| CTCTTTTA | -0.163 |
| CTTCACGC | 0.217 |
| AACAAAAA | -0.135 |
| AGAGTACC | 0.0145 |
| CAGGCTAA | -0.205 |
| CACTGACC | -0.0615 |
| ACCGCCCC | 0.116 |
| CAGAGATA | -0.136 |
| AGCCAGCG | 0.0437 |

Block 2
Target: CREB5, bZIP domain (human)
Technique: DHFR protein complementation
Medium: yeast
Notes: single substitutions, most at no-binding floor
Baseline: wild-type JUN-FOS pair
Direction: higher = stronger binding
Starting sequence: JUN, bZIP domain (human); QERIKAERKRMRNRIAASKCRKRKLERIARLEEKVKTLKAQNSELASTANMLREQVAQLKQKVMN; partner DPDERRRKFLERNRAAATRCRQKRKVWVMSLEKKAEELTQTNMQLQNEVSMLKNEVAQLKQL
| Variant | binding fitness |
| --- | --- |
| S43F | -0.358 natural log |
| Q58T | -0.268 natural log |
| E54D | -0.496 natural log |
| Q41K | -0.344 natural log |
| I28F | -0.563 natural log |
| A57D | -0.329 natural log |
| E44G | -0.729 natural log |
| L59E | -1.19 natural log |
| A49P | -1.37 natural log |
| A29V | -0.503 natural log |
| L38F | -1.25 natural log |
| I28T | -0.496 natural log |
| A49C | -0.615 natural log |
| E44M | -0.28 natural log |
| K36F | -0.7 natural log |
| K36R | -0.221 natural log |
| R53P | -1.36 natural log |

Block 3
Target: CCNA2, cyclin fold, Cln2 fusion (human)
Technique: yeast growth competition, sequencing
Medium: yeast
Notes: strong parent motif
Baseline: not given
Direction: higher = stronger binding
Starting sequence: SAMHD1 docking peptide (human); ASKSRVQLFKDDP
| Variant | normalised enrichment score |
| --- | --- |
| D11L | 1.46 |
| V6S | 0.00266 |
| L8M | 0.456 |
| S2M | 3.3 |
| K10Y | 1.72 |
| S4H | 1.88 |
| D12C | 2.65 |
| D12M | 2.96 |
| R5I | 1.02 |
| D11E | 3.23 |
| F9L | 0.363 |
| L8P | -0.0445 |
| L8W | 0.0632 |

Other studies, line by line
| Molecule | target | assay | system | setting | scale | measurement | result |
| --- | --- | --- | --- | --- | --- | --- | --- |
| PhoQ, residues 284 288 289 292 302 303 SSTLSG | PhoP, residues 12 14 15 18 19 NHFIF (Escherichia coli, UniProt P23836) | Sort-seq, item: YFP reporter | E. coli | PhoQ-PhoP variant library, added: 10 µM Mg2+ | baseline: high Mg2+ state, higher = stronger signaling | fold induction | 10.4 |

Some of these lines once more (block 1):
| Sequence | E-score |
| --- | --- |
| GCTGCGGA | 0.0546 |
| GCGACCTA | 0.091 |
| GGTTTAAA | -0.0864 |
